Measurements collected from several papers.
Parts stem from different laboratories: compare values within a part only.

Sample 1
Target: Histone acetyltransferase KAT6A, winged helix 2, GST fusion (KAT6A, Homo sapiens, UniProt Q92794, residues 85-181)
Method: protein binding microarray
Molecule type: double-stranded DNA, one strand shown
Sample: in vitro
Tested at: not given
Setting: 8-mer, flanks averaged, mean of 2 arrays, mostly near background
Reference: not given
Direction: higher = stronger binding
Residues (chain): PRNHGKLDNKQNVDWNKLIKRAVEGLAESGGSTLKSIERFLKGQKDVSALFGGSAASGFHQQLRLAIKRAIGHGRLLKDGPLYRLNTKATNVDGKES
Strand	E-score
GCGATGGA	0.156
CCGCACCC	0.117
GATTGGCC	-0.0265
ATACAGAC	0.0285
ACATGACT	-0.245
AGAAATAC	-0.00544
ACCGTTGA	-0.242
AAGATGTA	0.00945
GTCACGAC	0.123
GGCCCTCA	-0.0739
AACATAAT	-0.188
AGTGTATG	-0.214
TCACTCAA	-0.0179
ACCTGCTA	-0.0636
CAGAACCA	0.0762
AATCAGTA	-0.00233
CTTCGTGA	0.101
CTAGATTC	-0.131
TGGTCTAA	-0.141
GAGGGAGC	0.0704
ACCCGAGG	0.0455
CACGAGAC	0.0842

Sample 2
Target: RING finger protein unkempt homolog, zinc fingers 1-6, GST-SBP tag (UNK, Homo sapiens, UniProt Q9C0B0, residues 30-357)
UniProt Q9C0B0, sequence (30-357, looked up): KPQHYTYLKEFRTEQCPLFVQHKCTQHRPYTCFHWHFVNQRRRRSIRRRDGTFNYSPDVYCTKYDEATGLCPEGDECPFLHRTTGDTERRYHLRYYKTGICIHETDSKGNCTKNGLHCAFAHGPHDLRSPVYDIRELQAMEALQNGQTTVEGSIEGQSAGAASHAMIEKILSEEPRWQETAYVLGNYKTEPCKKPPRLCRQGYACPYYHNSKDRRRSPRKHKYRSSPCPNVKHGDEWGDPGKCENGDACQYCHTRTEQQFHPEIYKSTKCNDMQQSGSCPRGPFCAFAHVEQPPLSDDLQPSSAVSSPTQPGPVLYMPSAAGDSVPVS
Method: RNA Bind-n-Seq
Molecule type: RNA
Sample: in vitro
Tested at: not given
Setting: RNA with constant flanks, human and mouse sites, ends assumed
Reference: input RNA pool
Direction: higher = stronger binding
Shared flanks, not repeated: GGGAGUUCUACAGUCCGACGAUC … CAACAGAGGAUUGAGCAUCA
Strand	bound/input enrichment [ratio]
ACACUGGGCUCUUUGGAAGCUCUUCUUGAAUUUCUGAAAACAUCAGAGGUGCCAUAUGCAGGAAUUAACAUUGGCCCAGUCCAUAAAAAGGACGUUAUGAAGGCUUCAGUGAUGUUGGAA	0.156
AUGACCCUUGGACAGCAGGACGUUUCCAAAGUCCUGCUGGGACCACUCUCACCCUACACGAUAGAAUUUUUGCGGCAUCUGAAGAGCUUUUUCCAGGUUAUGUUUAAAGUUGAAACCAAG	1.82
ACGUCAGAUGACCUGACUGUUGUAGAUGCAGCUUCACUAAGACGACAGAUAAUCAAACUAAAUAGACGUCUACAACUUCUGGAAGAGGAGAACAAAGAACGUGCUAAAAGAGAAAUGGUC	0.173
AUGACGACAAGAAGGAUAUCAAAUCAAUUACUAGGUCAAGAUCUAGCAAUAAUGACGAUGAGGACCUGACACCAGAGCAGAAGGCAGAGCGUGAGAAGGAGCGGAGGAUGGCCAACAAUG	0.245
AGACAUUUUAAGGACCUCAGGUUCAUUAAAAAGGACUUAGAACUUUUCUCAAAUCCAUUUAGCUUUAAACCGGAAUAUGCGCCUAUUUCUGUAAGAGUGGAGCUAACAAAACUUCAGGCC	1.05

Sample 3
Target: Interferon regulatory factor 7, full length, phosphomimetic (IRF7, Homo sapiens, UniProt Q92985, residues 1-503, S101K/S471D/S472D/S475D/S476D/S477D/S483D/S484D/S487D)
Method: protein-binding microarray
Molecule type: double-stranded DNA, one strand shown
Sample: in vitro
Tested at: 250 nM
Setting: 60-bp whole probe
With: salmon DNA 0.4 mg/ml
Reference: random background probes
Direction: higher = stronger binding
Shared flanks, not repeated: GCCTAGCAC … GTCTTGATTCGCTTGACGCTGCTG
Target sequence (chain): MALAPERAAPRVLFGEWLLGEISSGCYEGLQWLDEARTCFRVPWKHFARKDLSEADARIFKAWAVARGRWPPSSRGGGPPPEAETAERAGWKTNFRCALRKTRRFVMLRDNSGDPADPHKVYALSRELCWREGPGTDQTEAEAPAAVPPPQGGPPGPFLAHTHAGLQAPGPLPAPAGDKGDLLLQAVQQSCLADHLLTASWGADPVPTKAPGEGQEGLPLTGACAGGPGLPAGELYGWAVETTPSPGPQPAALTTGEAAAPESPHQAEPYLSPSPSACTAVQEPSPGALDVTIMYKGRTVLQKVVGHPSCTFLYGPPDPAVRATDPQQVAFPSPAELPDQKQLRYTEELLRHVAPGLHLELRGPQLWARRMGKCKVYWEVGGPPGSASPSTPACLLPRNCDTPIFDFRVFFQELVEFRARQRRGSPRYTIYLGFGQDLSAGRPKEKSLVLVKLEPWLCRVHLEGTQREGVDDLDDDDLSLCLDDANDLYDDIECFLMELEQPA
Strand	log fluorescence [z-score]
TCACTTTTCACTTTCTTACTGTGCTAG	1.94
GACGGTTTCGACAATGGGGACGTGCTA	2.56
TGAGATATCAGACTGGATTAGTGCTAG	-0.343
TCAGGACTGGACACTGGGTTAGTGCTA	-0.831
TTAGATATCCGGTTTCGATTAGTGCTA	8.47
TTAGGTCTCCTTATCCTTTCGTGCTAG	0.422
TTAGGTTTCGGTATCCGTTAGTGCTAG	11.4
TCATTTTTGTATTTTTGACTGTGCTAG	1.09
CTAGAACTGGGGACTGGATTAGTGCTA	-0.222
TGAGATTTCGGGACTGGATTAGTGCTA	0.0312
TTACGACTGGACTATCGGTTAGTGCTA	-0.434
GATGGACTGCTTATCCTGACGTGCTAG	-0.246
GACGAACTGAGACTGGAGAAGTGCTAG	-0.183
AACGGTTTCGACTTTCGGGACGTGCTA	11.2
CCAAGGTTCAAGTTTACCCATGTGCTA	0.676
TTAGATTTGGGGTTTCGATTAGTGCTA	5.62
TCATACTTCCCACTGGTACTGTGCTAG	0.659

Sample 4
Target: RNA binding protein fox-1 homolog 2, RRM domain, GST-SBP tag (RBFOX2, Homo sapiens, UniProt O43251-10, residues 100-194)
Method: RNA Bind-n-Seq
Molecule type: RNA
Sample: in vitro
Tested at: 365 nM
Setting: natural RNA segment, single round, ends assumed
Reference: no-protein control
Direction: higher = stronger binding
Shared flanks, not repeated: GGGAGUUCUACAGUCCGACGAUC … UGGAAUUCUCGGGUGCCAA
Residues (chain): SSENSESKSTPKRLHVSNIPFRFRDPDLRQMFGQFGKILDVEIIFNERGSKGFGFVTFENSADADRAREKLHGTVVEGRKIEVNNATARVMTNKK
Strand	RBNS enrichment (R)
GGUUUUCAUCGGCUGUGCCAUUUCCCAACGUCUUUUGGGAUUUACAUCUGUCUGUGUUAAAAUAAUCAAACGAAAAAUCAGUCCUGUGUUGUCAGCAUGAUUCAUGUAUU	0.941
UCCUAGGAAAAUUUAAAGAUGACAGGCAGGGGAGAAGAUGCAUAUCAAAAGCUUGGCUUUAAAGUCUAAGGGAGUUUUAGAUCAAAAACUAGCUAUCACUUCCUGAGUGU	1.22
CCUGUAGCACUAGAAAUGCUUUCCUAUUUAAAAUAAACAUUAAAUUUUAAAAUAGAGCUUUGUAUACUAUGUAAGCAGUUUUAUAUCAGCUUUGUAAAAGCUUUGGUGUU	0.661
CCUCUAUUUGGCUGUAGUCUGCUCUGGGGCUUUCACUGUCAGUCUGGGGCAUGGGCUGAGCAAGUAUUUGUGUGGUCAAGGAAGUGCUAUGCCAACAUCUCCCAUUGGAA	1.09
ACAGGAUCUUAUCAGAGGUGGACAACGUGAAGAUUUCCUUUUCCAUUUUCAAUAAACUUUGGAACAACCUUCUCGUAUCUCCCCUAGAGUUUCGUGCCCCUCUGAACUGU	0.315
UGCAUACCUGUUUAGAACCAAAACCACCACGACACGGUUUUUAUAGUGUCUGUAUAUUUGUGAUGCAAUGGUCUUGUAAAGGUUUUUACUGAAAACUAUCAUUAGCCAGC	0.659
UUCAGAAAUAAUUAUUCAUUUUUAAAAAGCCCCUUUUAAAGCAUCUACUUGAAGAUUGGUAUAAUUUUCAUAAAAUGUCUUUUUUUUUAGUGUCCCAAAGAUAUCUUAGA	0.772
UUGGGCUUAGCCUUAGUCUCAUUCAAUCUCCAUUAUUACAGCCAUGGGGAAGAGUGAAAGAUAUAAAGUAACCUAAUUAAAUGUAUGGAAUUGCUAUUUUUAUAGCUGAU	0.326

For quick reference, copied from above (sample 3):
Strand	log fluorescence [z-score]
CTAGAACTGGGGACTGGATTAGTGCTA	-0.222
TGAGATATCAGACTGGATTAGTGCTAG	-0.343
TTAGGTTTCGGTATCCGTTAGTGCTAG	11.4
TTAGGTCTCCTTATCCTTTCGTGCTAG	0.422
